Experimental data from different studies.
Lines come from different studies, so protocols differ.
Cell line: MV4-11

c1cc2cc(c1)Cn1cc(nn1)Cn1nc(-c3ccc(N4CCNCC4)nc3)c3cnc(nc31)NCc1cn(nn1)C2 has an EC50 of 16600 nM (cell growth or viability, resazurin; 5 days).
The IC50 of CC1CCc2c(c(-c3c[nH]nc3C(F)(F)F)nc3ccc4[nH]ncc4c23)C1 (centres unmarked) is reported as 13.7 nM (cell growth or viability, resazurin; 72 h).
O=c1c(-c2cnn(-c3ccccc3)c2)c(C(F)(F)F)oc2c(O)c(O)ccc12 — result for “p27 protein level”: “no effect” (immunoblot; concentration not given).
The IC50 of CCCCCCCCC=CCCCCCCCC(=O)OC(COC(=O)Cc1c(C)n(C(=O)c2ccc(Cl)cc2)c2ccc(OC)cc12)COP(=O)([O-])OCC[N+](C)(C)C (centres unmarked) is reported as 52400 nM (cell growth or viability, MTT; 72 h).
N#Cc1c(-c2ccc(Cl)cc2)cc(-c2cccs2)nc1SCc1ccc(C(=O)O)cc1 gave an IC50 of 28400 nM (cell growth or viability, ATP luminescence; 72 h).
The EC50 of C/C(=N\NC(=O)c1cccc(S(=O)(=O)N2CCOCC2)c1)c1cc(Cl)ccc1O is reported as 422 nM (cell growth or viability, resazurin; 96 h).
COc1ccc(C[C@H]2COC(=O)[C@@H]2Cc2ccc(OCC(=O)Nc3ccc(C(=O)NO)cc3)c(OC)c2)cc1OC gave an IC50 of over 5000 nM (cell growth or viability, CCK-8; 48 h).
Cn1cc(-c2cc(N3CCCCS3(=O)=O)ccc2N[C@H]2CC[C@H](C)CC2)c2cc[nH]c2c1=O (stereo in doubt) has a GI50 of 1.3 nM (cell growth or viability, CCK-8; 72 h).
FC(F)(F)c1n[nH]cc1-c1nc2ccc3[nH]ncc3c2c2c1CCC2 gave an IC50 of 63 nM (cell growth or viability, resazurin; 72 h).
For COc1ccc(C[C@H]2COC(=O)[C@@H]2Cc2ccc(OCCCCCCCC(=O)NO)c(OC)c2)cc1OC, the IC50 was 1180 nM (cell growth or viability, CCK-8; 48 h).
With c1ccc(-n2cc(-c3nc4ccc5[nH]ncc5c4c4c3CCCC4)cn2)cc1 the IC50 was 1080 nM (cell growth or viability, resazurin; 72 h).
CCN(CC)CCCC(C)NCc1nn2c(-c3ccccc3)nnc2s1 (centres unmarked) gave an IC50 of 19200 nM (cell growth or viability, ATP luminescence; 72 h).
Cc1cc(-c2c[nH]nc2C(F)(F)F)nc2ccc3[nH]ncc3c12 gave an IC50 of 797 nM (cell growth or viability, resazurin; 72 h).
The IC50 of Cc1cc(CN2CCN(c3c(Br)cnc4[nH]c(-c5ccc(N6CCN(C)CC6)cc5)nc34)CC2)no1 is reported as 62 nM (cell growth or viability, MTS; 72 h).

Repeated from above:
The EC50 of C/C(=N\NC(=O)c1cccc(S(=O)(=O)N2CCOCC2)c1)c1cc(Cl)ccc1O is reported as 422 nM (cell growth or viability, resazurin; 96 h).
COc1ccc(C[C@H]2COC(=O)[C@@H]2Cc2ccc(OCC(=O)Nc3ccc(C(=O)NO)cc3)c(OC)c2)cc1OC gave an IC50 of over 5000 nM (cell growth or viability, CCK-8; 48 h).
